Measurements of several laboratories.
± gives the spread as reported.

For `NC1CCN(C(=O)Oc2ccc(C3CCCC4(C3)OOC3(O4)C4CC5CC(C4)CC3C5)cc2)CC1` (racemic), the half-life was ~10 h (male Sprague-Dawley rats, plasma; intravenous, 10 mg/kg).
The half-life of `C=C/C=C/C[C@@H](C)[C@@H](O)[C@H]1C(=O)N[C@@H](CC)C(=O)N(C)CC(=O)N(C)[C@@H](CC(C)C)C(=O)N[C@@H](C(C)C)C(=O)N(C)[C@@H](CC(C)C)C(=O)N[C@@H](C)C(=O)N[C@H](C)C(=O)N(C)[C@@H](CC(C)C)C(=O)N(C)[C@@H](CC(C)C)C(=O)N(C)[C@@H](C(C)C)C(=O)N1C` is reported as 11.4 ± 2.1 h (LC-MS/MS; rat, Wistar Kyoto, male, whole blood; intraperitoneal, 0.4 mg/kg single dose).
For `COc1ccc(-n2cc(C(=O)N3C[C@]4(OC(=O)c5ccccc5NC(C)=O)CC[C@H](OC)[C@@]56[C@@H]4C[C@@H]([C@@H]35)[C@@]3(O)C[C@H](OC)[C@H]4C[C@@H]6[C@]3(O)[C@H]4OC)nn2)cc1`, the half-life was 0.347 h (rat Sprague-Dawley, plasma; intravenous, 2 mg/kg).
`COCC12CCC(OC)C34C5CC6(O)C(OC)C(O)C(O)(C5C6OC(=O)c5ccccc5)C(C(OC)C13)C4N(C)C2` (centres unmarked) gave a half-life of 4.38 ± 0.533 h (Sprague-Dawley rat, plasma; oral, dose not given, in PCW extract).
`O=C(O)/C=C\c1ccc2occc2c1O[C@@H]1O[C@H](CO)[C@@H](O)[C@H](O)[C@H]1O` has a half-life of 2.75 ± 0.5 h (rat, plasma; oral, 500 mg/kg Eu + 217 mg/kg Pc extract, dosed as combined Eu and Pc extracts).
For `CSCC[C@@H]1NC(=O)[C@H](C(C)C)NC(=O)[C@H](CCCNC(=N)N)NC(=O)CNC(=O)[C@@H]2CCCN2C(=O)[C@@H](NC(=O)CNC(=O)[C@H](CO)NC(=O)CNC(=O)[C@H](CO)NC(=S)Nc2ccc(C[C@H]3CN(CC(=O)O)CCN(CC(=O)O)CCN3CC(=O)O)cc2)CSSC[C@@H](C(N)=O)NC(=O)[C@@H]2CCCN2C(=O)CNC(=O)[C@H](CCC(=O)O)NC(=O)[C@H](CC(=O)O)NC(=O)[C@H](CC(=O)O)NC(=O)CNC(=O)[C@H](CC(C)C)NC(=O)[C@H](Cc2c[nH]cn2)NC(=O)[C@H](CC(C)C)NC(=O)CNC(=O)[C@H](Cc2c[nH]cn2)NC1=O` [copper-64 labelled], the half-life was 0.04 ± 0.00167 h (dynamic PET; CD rat, myocardial infarction model, remote myocardium; intravenous, 18.5 MBq, 0 to 5 min).
For `CCCC[C@@H]1NC(=O)[C@H](Cc2ccc(O)cc2)NC(=O)[C@@H]2CCCN2C(=O)[C@H](CC(=O)O)NC(=O)[C@H](C)NC(=O)[C@H](Cc2ccccc2)NC(=O)[C@@H]2CSCCC(=O)N3CN(CN(C3)C(=O)CCSC[C@@H](C(=O)N[C@@H](C)C(N)=O)NC1=O)C(=O)CCSC[C@H](NC(C)=O)C(=O)N[C@@H](CC(C)(C)C)C(=O)N1CCC[C@H]1C(=O)N[C@@H](CCC(=O)O)C(=O)N[C@H](CCCCNC(=O)CCc1cn(CCOCCOCCOCCN(CCOCCOCCOCCC(=O)N[C@H]3CSCCC(=O)N4CN5CN(C4)C(=O)CCSC[C@H](NC(=O)[C@@H](CC(=O)O)NC(=O)[C@H](Cc4cccc6ccccc46)NC(=O)[C@@H]4CCCN4C3=O)C(=O)N[C@@H](CCSC)C(=O)N[C@@H](CCCCNC(=N)N)C(=O)N[C@@H](CC(=O)O)C(=O)N[C@@H](Cc3c[nH]c4ccccc34)C(=O)N[C@@H](CO)C(=O)N[C@@H]([C@@H](C)O)C(=O)N3CCC[C@H]3C(=O)N3C[C@H](O)C[C@H]3C(=O)N[C@@H](Cc3c[nH]c4ccccc34)C(=O)N[C@H](C(N)=O)CSCCC5=O)CCOCCOCCOCCn3cc(CCC(=O)NCCCC[C@H]4NC(=O)[C@H](CCC(=O)O)NC(=O)[C@@H]5CCCN5C(=O)[C@H](CC(C)(C)C)NC(=O)[C@@H](NC(C)=O)CSCCC(=O)N5CN6CN(C5)C(=O)CCSC[C@H](NC(=O)[C@H](Cc5ccc(O)cc5)NC(=O)[C@@H]5CCCN5C4=O)C(=O)N[C@@H](Cc4ccccc4)C(=O)N[C@@H](C)C(=O)N[C@@H](CC(=O)O)C(=O)N4CCC[C@H]4C(=O)N[C@@H](Cc4ccc(O)cc4)C(=O)N[C@@H](CCCC)C(=O)N[C@H](C(=O)N[C@@H](C)C(N)=O)CSCCC6=O)nn3)nn1)C(=O)N1CCC[C@H]1C(=O)N[C@@H](Cc1ccc(O)cc1)C(=O)N2`, the half-life was 3.6 ± 0.6 h (Sprague-Dawley rat).
`CCN1CC2(COC)C(O)CC(OC)C34C5CC6(O)C(OC)C(O)C(O)(C5C6OC(=O)c5ccccc5)C(C(OC)C23)C14` (centres unmarked) has a half-life of 5.39 ± 1.97 h (Sprague-Dawley rat, plasma; oral, dose not given, in PCW extract).

Some of these lines once more:
For `CCCC[C@@H]1NC(=O)[C@H](Cc2ccc(O)cc2)NC(=O)[C@@H]2CCCN2C(=O)[C@H](CC(=O)O)NC(=O)[C@H](C)NC(=O)[C@H](Cc2ccccc2)NC(=O)[C@@H]2CSCCC(=O)N3CN(CN(C3)C(=O)CCSC[C@@H](C(=O)N[C@@H](C)C(N)=O)NC1=O)C(=O)CCSC[C@H](NC(C)=O)C(=O)N[C@@H](CC(C)(C)C)C(=O)N1CCC[C@H]1C(=O)N[C@@H](CCC(=O)O)C(=O)N[C@H](CCCCNC(=O)CCc1cn(CCOCCOCCOCCN(CCOCCOCCOCCC(=O)N[C@H]3CSCCC(=O)N4CN5CN(C4)C(=O)CCSC[C@H](NC(=O)[C@@H](CC(=O)O)NC(=O)[C@H](Cc4cccc6ccccc46)NC(=O)[C@@H]4CCCN4C3=O)C(=O)N[C@@H](CCSC)C(=O)N[C@@H](CCCCNC(=N)N)C(=O)N[C@@H](CC(=O)O)C(=O)N[C@@H](Cc3c[nH]c4ccccc34)C(=O)N[C@@H](CO)C(=O)N[C@@H]([C@@H](C)O)C(=O)N3CCC[C@H]3C(=O)N3C[C@H](O)C[C@H]3C(=O)N[C@@H](Cc3c[nH]c4ccccc34)C(=O)N[C@H](C(N)=O)CSCCC5=O)CCOCCOCCOCCn3cc(CCC(=O)NCCCC[C@H]4NC(=O)[C@H](CCC(=O)O)NC(=O)[C@@H]5CCCN5C(=O)[C@H](CC(C)(C)C)NC(=O)[C@@H](NC(C)=O)CSCCC(=O)N5CN6CN(C5)C(=O)CCSC[C@H](NC(=O)[C@H](Cc5ccc(O)cc5)NC(=O)[C@@H]5CCCN5C4=O)C(=O)N[C@@H](Cc4ccccc4)C(=O)N[C@@H](C)C(=O)N[C@@H](CC(=O)O)C(=O)N4CCC[C@H]4C(=O)N[C@@H](Cc4ccc(O)cc4)C(=O)N[C@@H](CCCC)C(=O)N[C@H](C(=O)N[C@@H](C)C(N)=O)CSCCC6=O)nn3)nn1)C(=O)N1CCC[C@H]1C(=O)N[C@@H](Cc1ccc(O)cc1)C(=O)N2`, the half-life was 3.6 ± 0.6 h (Sprague-Dawley rat).
